Results pooled from the literature.
A part holds a random share of what one study measured.

Set 1
Organism: Plasmodium berghei
Action: inhibitor
Cells: Huh-7
Strain: liver stage
Tested at: 10 µM
Time: 24 h
Reference: untreated control
Quantity: infection rate
CC1CCc2cc(F)cc3c(=O)c(C(=O)O)cn1c23 (stereo not shown): 110%
C[C@H]1C[C@@H]2[C@H]([C@@H](O)C[C@@]3(C)[C@H]2CC[C@]3(O)C(=O)COC(=O)CCC(=O)O)[C@@]2(C)C=CC(=O)C=C12: 113%
COC(=O)C1=C(C)NC(C)=C(C(=O)OCCN(C)Cc2ccccc2)C1c1cccc([N+](=O)[O-])c1 (stereo not shown): 112%
COc1c(C)c2c(c(O)c1C/C=C(\C)CCC(=O)O)C(=O)OC2: 22.5%
CCCC(=O)O[C@]1(C(=O)CO)CC[C@H]2[C@@H]3CCC4=CC(=O)CC[C@]4(C)[C@H]3[C@@H](O)C[C@@]21C: 101%
CC1(C)S[C@@H]2[C@H](N3C(=O)[C@@H](c4ccccc4)NC3(C)C)C(=O)N2[C@H]1C(=O)O: 100%
Cc1ncc([N+](=O)[O-])n1CCO: 103%

Set 2
Target: DNA polymerase theta, ATPase domain (POLQ, Homo sapiens, UniProt O75417)
Effect on: enzyme activity
Action: inhibitor
Tested at: 77 µM
Reference: untreated
Quantity: remaining activity
O=c1cc(O)cc(/C=C/c2ccc(O)c(O)c2)o1: 92.7%
CCCC(=O)Nc1ncnc2c1ncn2[C@@H]1O[C@@H]2COP(=O)(O)O[C@H]2[C@H]1OC(=O)CCC: 109%
N[C@H]1CONC1=O: 101%
Oc1ccc([C@H]2COc3cc(O)ccc3C2)cc1: 94.1%
Clc1ccc(C(Cn2ccnc2)OCc2ccsc2Cl)c(Cl)c1 (stereo not shown): 100%

Set 3
Structure (SMILES): Cc1ccc(NC(=O)c2ccnc(C(F)(F)F)c2)cc1-c1cc(OCCO)nc(N2CCOCC2)c1
Method: competitive binding panel
Tested at: 1 µM
Reference: vehicle
Quantity: remaining binding
EIF2AK4 (Homo sapiens, UniProt Q9P2K8, S808G): 100%
MELK (Homo sapiens, UniProt Q14680): 65%
WNK3 (Homo sapiens, UniProt Q9BYP7): 70%
FGFR3 (Homo sapiens, UniProt P22607): 90%
CSNK2A2 (Homo sapiens, UniProt P19784): 71%
PIK3CA (Homo sapiens, UniProt P42336, H1047Y): 74%

Set 4
SMILES: CCS(=O)(=O)c1cc2cc(C[C@@](O)(CC(C)(C)c3ccc(F)cc3C(N)=O)C(F)(F)F)[nH]c2cn1
Effect on: cell-free assay
Method: competition with immobilised ligand
Tested at: 1 µM
Quantity: remaining binding
PHKG1 (Homo sapiens, UniProt Q16816): 67%
HIPK4 (Homo sapiens, UniProt Q8NE63): 100%
Non-receptor tyrosine-protein kinase TYK2, JH2 (TYK2, Homo sapiens, UniProt P29597): 83%
MAP4K1 (Homo sapiens, UniProt Q92918): 100%
ALK (Homo sapiens, UniProt Q9UM73, L1196M): 100%
STK10 (Homo sapiens, UniProt O94804): 100%
FLT1 (Homo sapiens, UniProt P17948): 67%
LATS2 (Homo sapiens, UniProt Q9NRM7): 100%
ITK (Homo sapiens, UniProt Q08881): 96%
CDK8 (Homo sapiens, UniProt P49336): 100%
MERTK (Homo sapiens, UniProt Q12866): 100%
EPHB2 (Homo sapiens, UniProt P29323): 95%
MAP3K19 (Homo sapiens, UniProt Q56UN5): 76%
EIF2AK1 (Homo sapiens, UniProt Q9BQI3): 80%
MAP3K15 (Homo sapiens, UniProt Q6ZN16): 57%
RIOK2 (Homo sapiens, UniProt Q9BVS4): 95%

For quick reference, copied from above (set 3):
MELK (Homo sapiens, UniProt Q14680): 65%
WNK3 (Homo sapiens, UniProt Q9BYP7): 70%
FGFR3 (Homo sapiens, UniProt P22607): 90%
CSNK2A2 (Homo sapiens, UniProt P19784): 71%
PIK3CA (Homo sapiens, UniProt P42336, H1047Y): 74%
